{"data": "Measured values of several laboratories"}
{"Structure (SMILES)": "CCN(CCO)CCCC(C)Nc1ccnc2cc(Cl)ccc12 (centres unmarked)", "test": "item: Fatigue grade 2", "test system": "newly diagnosed glioblastoma patients", "setting": "oral, 400 mg/dose, with radiotherapy and temozolomide", "measurement": "patients with adverse event", "result": "33%"}
{"Structure (SMILES)": "O=C1Nc2cc3[nH]nc(-c4ccncc4)c3cc2CN1Cc1ccccc1", "test": "CTCAE v4.03", "test system": "advanced solid tumour patients", "setting": "intravenous, 9.6 mg/kg, schedules 1/2", "measurement": "patients with ≥1 TEAE", "result": "100%"}
{"Structure (SMILES)": "CC(=O)c1c(C)c2cnc(Nc3ccc(C4CCN(CCS(C)(=O)=O)CC4)cn3)nc2n(C2CCCC2)c1=O", "test system": "HR+/HER2- advanced breast cancer patients", "setting": "oral, 50 mg", "measurement": "patients with TRAE grade ≥3", "result": "33.3%"}
{"Structure (SMILES)": "CN1CC[C@@H](c2c(O)cc(O)c3c(=O)cc(-c4ccc(C(F)(F)F)cc4Cl)oc23)[C@@H]1CO", "test": "item: Sepsis", "test system": "relapsed B-cell malignancies", "setting": "oral, 200 mg, grade 3-4, intermittent dosing", "measurement": "patients with adverse event", "result": "0%"}
{"Structure (SMILES)": "Nc1nc2cc(-c3ccc4ncc(C(=O)N5CCOCC5)n4c3)ccc2o1", "test": "item: Vomiting, any cause, all grades", "test system": "patients with advanced solid tumours", "setting": "dose not given", "measurement": "patients with adverse events", "result": "59%"}
{"Structure (SMILES)": "N[C@@H]1c2ccccc2OC12CCN(c1cnc3c(N4CCCc5ncccc54)n[nH]c3n1)CC2", "test system": "advanced solid tumour patients", "setting": "oral, 50 mg once daily", "measurement": "patients with fatal TEAE", "result": "0%"}
{"Structure (SMILES)": "C=CCNc1c(O)cc2c(O)c1C[C@@H](C)C[C@H](OC)[C@H](O)[C@@H](C)/C=C(\\C)[C@H](OC(N)=O)[C@@H](OC)/C=C\\C=C(/C)C(=O)N2", "test system": "unresectable or metastatic sarcoma", "setting": "intravenous, 500 mg/m^2, grade 3-4 lab change", "measurement": "patients with ALT increase", "result": "0%"}
{"Structure (SMILES)": "C[C@@H]1OC(=O)NN=C1c1ccc(-c2ccc(F)cc2)c(C(F)(F)F)c1", "test system": "patients, phase I trial", "setting": "oral, dose not given, all arms, worst grade 1", "measurement": "patients with muscle spasms", "result": "40%"}
